{"data": "Published values gathered from unrelated publications", "B1": "disulfide; chain GLIHQYCQGYWRHVPPSPREAPGAPRSPEPDQKKPRNRRHHPPDT (disulfide (positions not given here))", "note": "Compare with care: the assays were run in different laboratories. ± gives the spread as reported. Where no end group is shown, it is not given here.", "sequence of UniProt P02754 (whole entry, looked up)": "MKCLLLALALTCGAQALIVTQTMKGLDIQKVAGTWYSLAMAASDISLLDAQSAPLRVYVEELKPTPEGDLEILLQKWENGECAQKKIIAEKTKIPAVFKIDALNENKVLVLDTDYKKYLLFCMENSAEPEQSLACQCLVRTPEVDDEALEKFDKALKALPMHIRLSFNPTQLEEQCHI", "sequence of UniProt P0DMV8 (whole entry, looked up)": "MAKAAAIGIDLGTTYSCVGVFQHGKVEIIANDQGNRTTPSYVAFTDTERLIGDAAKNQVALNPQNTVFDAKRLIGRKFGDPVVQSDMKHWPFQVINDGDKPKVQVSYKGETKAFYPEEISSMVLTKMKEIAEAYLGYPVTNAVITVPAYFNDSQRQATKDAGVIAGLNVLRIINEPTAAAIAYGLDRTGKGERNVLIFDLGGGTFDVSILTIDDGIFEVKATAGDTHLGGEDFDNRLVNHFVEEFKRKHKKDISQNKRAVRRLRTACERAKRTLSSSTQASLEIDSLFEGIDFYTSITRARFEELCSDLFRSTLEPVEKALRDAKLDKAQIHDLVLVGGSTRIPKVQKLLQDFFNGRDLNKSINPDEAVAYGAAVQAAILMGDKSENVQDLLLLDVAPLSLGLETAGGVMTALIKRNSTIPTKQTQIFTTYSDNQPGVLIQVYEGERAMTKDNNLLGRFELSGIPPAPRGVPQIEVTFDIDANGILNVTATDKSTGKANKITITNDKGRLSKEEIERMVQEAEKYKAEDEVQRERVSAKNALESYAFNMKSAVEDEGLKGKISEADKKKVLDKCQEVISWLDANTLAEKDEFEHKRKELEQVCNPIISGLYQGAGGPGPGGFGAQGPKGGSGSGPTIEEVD", "sequence of UniProt Q9NZC7 (whole entry, unmodified, looked up)": "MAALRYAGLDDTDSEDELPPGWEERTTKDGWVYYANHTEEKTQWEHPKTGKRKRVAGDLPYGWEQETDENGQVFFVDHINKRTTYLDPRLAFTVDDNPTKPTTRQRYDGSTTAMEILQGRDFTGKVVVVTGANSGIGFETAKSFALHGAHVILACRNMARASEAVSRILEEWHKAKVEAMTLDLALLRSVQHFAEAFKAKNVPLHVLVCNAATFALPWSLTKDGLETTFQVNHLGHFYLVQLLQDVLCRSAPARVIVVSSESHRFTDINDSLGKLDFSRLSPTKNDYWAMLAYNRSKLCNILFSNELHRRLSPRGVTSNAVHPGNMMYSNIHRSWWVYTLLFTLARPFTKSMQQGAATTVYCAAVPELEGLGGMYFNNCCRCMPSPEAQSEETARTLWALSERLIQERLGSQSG", "sequence of UniProt Q14123 (whole entry, looked up)": "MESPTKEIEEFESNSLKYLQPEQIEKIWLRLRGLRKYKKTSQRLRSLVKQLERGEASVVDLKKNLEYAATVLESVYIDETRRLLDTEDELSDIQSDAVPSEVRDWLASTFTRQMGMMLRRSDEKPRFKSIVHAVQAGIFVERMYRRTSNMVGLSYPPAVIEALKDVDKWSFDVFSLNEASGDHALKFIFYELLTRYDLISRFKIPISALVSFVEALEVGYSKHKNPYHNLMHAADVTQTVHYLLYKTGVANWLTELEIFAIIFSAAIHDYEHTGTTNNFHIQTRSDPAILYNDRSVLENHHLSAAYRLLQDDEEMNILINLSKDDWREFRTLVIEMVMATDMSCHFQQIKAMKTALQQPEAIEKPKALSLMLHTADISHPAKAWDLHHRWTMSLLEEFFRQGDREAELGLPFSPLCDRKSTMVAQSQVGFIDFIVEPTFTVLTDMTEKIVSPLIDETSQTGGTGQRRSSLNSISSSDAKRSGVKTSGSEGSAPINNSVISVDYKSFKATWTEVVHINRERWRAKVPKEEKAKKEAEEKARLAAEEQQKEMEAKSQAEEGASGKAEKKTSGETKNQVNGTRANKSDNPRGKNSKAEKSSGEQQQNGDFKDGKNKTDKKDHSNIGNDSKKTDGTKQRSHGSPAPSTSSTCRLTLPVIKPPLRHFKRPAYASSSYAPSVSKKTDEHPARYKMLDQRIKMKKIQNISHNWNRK", "sequence of UniProt P18433 (whole entry, looked up)": "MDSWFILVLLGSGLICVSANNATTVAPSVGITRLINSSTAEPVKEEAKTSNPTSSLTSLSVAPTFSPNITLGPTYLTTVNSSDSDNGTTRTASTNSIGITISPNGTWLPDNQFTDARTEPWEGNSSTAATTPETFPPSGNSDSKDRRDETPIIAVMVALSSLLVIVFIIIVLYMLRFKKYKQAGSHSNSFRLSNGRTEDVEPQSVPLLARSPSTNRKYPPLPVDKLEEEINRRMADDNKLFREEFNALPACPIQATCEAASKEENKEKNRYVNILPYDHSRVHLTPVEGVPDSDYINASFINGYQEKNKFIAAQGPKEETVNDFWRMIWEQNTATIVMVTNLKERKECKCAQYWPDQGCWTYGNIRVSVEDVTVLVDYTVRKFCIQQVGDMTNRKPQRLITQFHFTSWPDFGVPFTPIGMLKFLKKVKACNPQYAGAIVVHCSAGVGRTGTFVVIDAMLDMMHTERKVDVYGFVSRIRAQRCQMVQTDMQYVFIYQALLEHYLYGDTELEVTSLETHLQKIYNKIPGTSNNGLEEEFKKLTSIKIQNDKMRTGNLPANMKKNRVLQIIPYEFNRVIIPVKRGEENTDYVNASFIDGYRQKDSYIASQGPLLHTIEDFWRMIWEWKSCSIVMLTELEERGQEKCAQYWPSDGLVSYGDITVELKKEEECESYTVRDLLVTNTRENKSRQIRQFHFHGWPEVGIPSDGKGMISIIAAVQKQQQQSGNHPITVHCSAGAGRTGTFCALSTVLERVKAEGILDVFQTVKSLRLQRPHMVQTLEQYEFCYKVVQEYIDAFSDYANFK", "sequence of UniProt O76082 (whole entry, looked up)": "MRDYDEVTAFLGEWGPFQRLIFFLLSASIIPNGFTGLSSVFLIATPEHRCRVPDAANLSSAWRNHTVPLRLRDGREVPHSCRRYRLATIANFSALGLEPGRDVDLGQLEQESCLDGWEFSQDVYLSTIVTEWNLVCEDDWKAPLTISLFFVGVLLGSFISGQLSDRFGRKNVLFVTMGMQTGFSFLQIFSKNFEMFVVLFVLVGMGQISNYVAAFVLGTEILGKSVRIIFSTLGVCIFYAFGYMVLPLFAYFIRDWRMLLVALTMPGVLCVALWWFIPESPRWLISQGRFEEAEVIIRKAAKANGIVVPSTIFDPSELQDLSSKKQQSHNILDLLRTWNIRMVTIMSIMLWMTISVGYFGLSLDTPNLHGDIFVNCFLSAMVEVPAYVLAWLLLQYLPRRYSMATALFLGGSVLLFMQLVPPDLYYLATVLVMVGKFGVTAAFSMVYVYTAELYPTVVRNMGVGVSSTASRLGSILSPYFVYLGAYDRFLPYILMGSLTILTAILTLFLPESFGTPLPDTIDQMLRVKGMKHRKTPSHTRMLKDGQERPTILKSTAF", "sequence of UniProt P53341 (whole entry, looked up)": "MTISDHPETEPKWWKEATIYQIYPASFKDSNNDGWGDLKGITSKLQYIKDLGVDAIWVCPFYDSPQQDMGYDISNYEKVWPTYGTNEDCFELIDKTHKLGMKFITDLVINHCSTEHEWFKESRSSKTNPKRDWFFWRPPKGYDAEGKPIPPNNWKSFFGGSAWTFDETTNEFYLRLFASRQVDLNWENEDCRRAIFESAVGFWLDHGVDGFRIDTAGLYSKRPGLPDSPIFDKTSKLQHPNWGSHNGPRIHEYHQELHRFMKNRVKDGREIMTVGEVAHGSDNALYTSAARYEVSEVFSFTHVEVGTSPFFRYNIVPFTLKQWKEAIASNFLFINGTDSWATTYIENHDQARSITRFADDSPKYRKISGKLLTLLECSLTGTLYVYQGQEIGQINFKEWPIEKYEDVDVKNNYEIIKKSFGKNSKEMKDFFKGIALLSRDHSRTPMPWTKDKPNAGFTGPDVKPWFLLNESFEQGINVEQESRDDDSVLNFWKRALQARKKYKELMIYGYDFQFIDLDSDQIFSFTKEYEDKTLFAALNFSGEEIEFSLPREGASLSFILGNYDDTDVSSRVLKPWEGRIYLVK", "sequence of UniProt P69905 (whole entry, looked up)": "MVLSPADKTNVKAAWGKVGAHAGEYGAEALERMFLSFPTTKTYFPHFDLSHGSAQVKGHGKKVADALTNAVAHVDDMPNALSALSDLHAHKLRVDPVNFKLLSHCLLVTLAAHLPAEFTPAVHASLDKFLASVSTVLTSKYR", "sequence of UniProt O60462 (whole entry, looked up)": "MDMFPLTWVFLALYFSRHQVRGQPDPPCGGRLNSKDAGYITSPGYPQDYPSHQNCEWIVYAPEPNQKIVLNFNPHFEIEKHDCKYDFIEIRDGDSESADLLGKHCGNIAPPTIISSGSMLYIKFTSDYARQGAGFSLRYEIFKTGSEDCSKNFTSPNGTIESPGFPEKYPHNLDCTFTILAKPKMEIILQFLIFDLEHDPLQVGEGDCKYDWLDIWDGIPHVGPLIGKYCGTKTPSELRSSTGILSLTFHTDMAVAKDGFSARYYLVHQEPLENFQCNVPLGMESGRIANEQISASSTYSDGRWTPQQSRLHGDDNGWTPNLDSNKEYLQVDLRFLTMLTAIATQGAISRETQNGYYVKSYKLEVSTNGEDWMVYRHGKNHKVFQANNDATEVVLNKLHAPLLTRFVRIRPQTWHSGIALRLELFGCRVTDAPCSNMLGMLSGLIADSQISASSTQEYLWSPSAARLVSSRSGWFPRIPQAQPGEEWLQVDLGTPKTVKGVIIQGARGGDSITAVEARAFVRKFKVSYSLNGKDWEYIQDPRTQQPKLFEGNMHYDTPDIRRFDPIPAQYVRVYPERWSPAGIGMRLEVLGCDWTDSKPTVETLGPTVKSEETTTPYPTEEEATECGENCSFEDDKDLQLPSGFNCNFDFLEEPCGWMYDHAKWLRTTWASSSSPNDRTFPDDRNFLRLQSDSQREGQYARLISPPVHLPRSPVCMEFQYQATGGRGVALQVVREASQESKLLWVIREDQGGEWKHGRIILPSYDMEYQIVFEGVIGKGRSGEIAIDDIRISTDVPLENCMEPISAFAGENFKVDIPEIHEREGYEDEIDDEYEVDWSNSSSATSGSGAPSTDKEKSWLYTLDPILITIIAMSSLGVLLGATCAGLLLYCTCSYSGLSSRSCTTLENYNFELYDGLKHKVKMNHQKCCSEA"}
{"Molecule": "CSc1ccc(/C=C2/C(C)=C(CC(=O)O)c3cc(F)ccc32)cc1", "target": "PDE1C (Homo sapiens, UniProt Q14123)", "test": "cGMP hydrolysis, inhibitor", "conditions": "up to 200 µM", "quantity": "IC50", "value": "inactive"}
{"Molecule": "COc1cc2c(=O)c(OC)c(-c3ccccc3)oc2c(O)c1OC", "target": "MAL12 (Saccharomyces cerevisiae S288c, UniProt P53341)", "test": "enzyme activity, inhibitor", "conditions": "250 µM", "quantity": "inhibition", "value": "> 99%"}
{"Molecule": "Cc1cn([C@H]2C[C@H](N=[N+]=[N-])[C@@H](CO[P@](=O)(O)O[P@](=O)(O)OP(=O)(O)O)O2)c(=O)[nH]c1=O", "target": "Gag-Pol polyprotein, reverse transcriptase (gag-pol, Human immunodeficiency virus 1, UniProt P03366)", "test": "reverse transcriptase DNA synthesis, inhibitor, CRISPR-Cas12a fluorescence", "conditions": "90 min", "quantity": "minimum inhibitory concentration", "value": "> 0.1 µM"}
{"Molecule": "CCCOCc1ccc(C=O)o1", "target": "Hemoglobin subunit alpha, with sickle beta chain (HBA1, Homo sapiens, UniProt P69905)", "test": "oxygen affinity", "test system": "sickle red cell lysate", "conditions": "2 mM", "how to read": "baseline: untreated", "quantity": "P50 change", "value": "44 ± 9.7%"}
{"Molecule": "CCN1CCN(C(C)C(=O)Nc2c(C)csc2C(=O)OC)CC1 (stereo not shown)", "target": "SCN9A (Homo sapiens, UniProt Q15858)", "test": "cell membrane chromatography", "how to read": "higher = stronger binding", "quantity": "capacity factor k′", "value": 4.6}
{"Molecule": "C=CC1=C(C)c2cc3[nH]c(cc4nc(cc5[nH]c(cc1n2)c(C)c5CCC(=O)O)C(CCC(=O)O)=C4C)c(C)c3C=C", "target": "Beta-lactoglobulin (LGB, Bos taurus, UniProt P02754)", "test": "fluorescence quenching", "conditions": "pH 7.4, 27 °C", "quantity": "binding constant", "value": "18600 M⁻¹"}
{"Molecule": "O=[N+]([O-])c1ccc(OP(=O)(O)O)cc1", "target": "Receptor-type tyrosine-protein phosphatase alpha, residues 224–802 (Homo sapiens, UniProt P18433)", "test": "substrate", "conditions": "pH 7.4", "quantity": "kcat", "value": "0.54 ± 0.28 s⁻¹"}
{"Molecule": "O=C(CCc1ccccc1)N[C@H]1CNC1=O", "target": "NAAA (Homo sapiens, UniProt Q02083)", "test": "enzyme activity, inhibitor, fluorogenic PAMCA hydrolysis", "conditions": "pH 4.5, with: 5 µM PAMCA", "quantity": "IC50", "value": "inactive"}
{"Molecule": "CNC(=O)[C@H]1O[C@@H](n2cnc3c(NCc4cccc(I)c4)ncnc32)[C@H](O)[C@@H]1O", "target": "ADORA3 (Homo sapiens, UniProt P0DMS8)", "test": "[3H]PSB-11 displacement", "test system": "CHO membranes", "conditions": "with: GTP 1 mM", "quantity": "Hill slope", "value": "-0.99 ± 0.07"}
{"Molecule": "CC1=C(C(=O)OCc2ccccc2)C(c2ccc(-c3ccccc3)cc2)NC(=O)N1CCCCCc1nnn[nH]1 (stereo not shown)", "target": "Heat shock 70 kDa protein 1A, with Hdj2 (HSPA1A, Homo sapiens, UniProt P0DMV8)", "test": "ATPase activity, inhibitor", "conditions": "100 µM, Hsp40-stimulated activity, with: Hdj2 Hsp70:Hsp40 1:0.5", "how to read": "baseline: DMSO, negative means inhibition", "quantity": "fold change in activity", "value": "-1.3 fold"}
{"Molecule": "CC(C)C[C@H](NC(=O)[C@@H](NC(=O)[C@@H](N)[C@@H](C)O)C(C)C)C(=O)N1CCC[C@H]1C(=O)N1CCC[C@H]1C(=O)N1CCC[C@H]1C(=O)N1CCC[C@H]1C(=O)N[C@@H](Cc1ccc(O)cc1)C(=O)N[C@@H](CCCNC(=N)N)C(=O)N[C@@H](Cc1c[nH]cn1)C(=O)N[C@@H](CCCNC(=N)N)C(=O)N[C@@H](CC(N)=O)C(=O)O", "target": "WW domain-containing oxidoreductase, WW1-WW2 tandem domains (WWOX, Homo sapiens, UniProt Q9NZC7)", "test": "binding, ITC", "conditions": "pH 7.0, 25 °C", "quantity": "TΔS", "value": "0.7 ± 0.37 kcal/mol"}
{"Molecule": "B1", "target": "Neuropilin-2 (NRP2, Homo sapiens, UniProt O60462)", "test": "sedimentation velocity AUC", "conditions": "2.5-fold molar excess, 8 µM b1b2 domain", "quantity": "apparent molecular mass, monomer peak", "value": "41.7 ± 1.8 kDa"}
{"Molecule": "C[N+](C)(C)C[C@@H](O)CC(=O)[O-]", "target": "SLC22A5 (Homo sapiens, UniProt O76082)", "test": "transporter uptake, inhibitor", "conditions": "20 µM", "quantity": "inhibition", "value": "58.5%"}
{"note": "A few entries again:"}
{"Molecule": "COc1cc2c(=O)c(OC)c(-c3ccccc3)oc2c(O)c1OC", "target": "MAL12 (Saccharomyces cerevisiae S288c, UniProt P53341)", "test": "enzyme activity, inhibitor", "conditions": "250 µM", "quantity": "inhibition", "value": "> 99%"}
